Measured values of several laboratories.
Compare with care: the assays were run in different laboratories.
PIK3CA E542K with p85 alpha: Phosphatidylinositol 4,5-bisphosphate 3-kinase catalytic subunit alpha isoform, with p85 alpha (PIK3CA, Homo sapiens, UniProt P42336, E542K)
Sequence of UniProt P42336 (whole entry, unmodified, looked up): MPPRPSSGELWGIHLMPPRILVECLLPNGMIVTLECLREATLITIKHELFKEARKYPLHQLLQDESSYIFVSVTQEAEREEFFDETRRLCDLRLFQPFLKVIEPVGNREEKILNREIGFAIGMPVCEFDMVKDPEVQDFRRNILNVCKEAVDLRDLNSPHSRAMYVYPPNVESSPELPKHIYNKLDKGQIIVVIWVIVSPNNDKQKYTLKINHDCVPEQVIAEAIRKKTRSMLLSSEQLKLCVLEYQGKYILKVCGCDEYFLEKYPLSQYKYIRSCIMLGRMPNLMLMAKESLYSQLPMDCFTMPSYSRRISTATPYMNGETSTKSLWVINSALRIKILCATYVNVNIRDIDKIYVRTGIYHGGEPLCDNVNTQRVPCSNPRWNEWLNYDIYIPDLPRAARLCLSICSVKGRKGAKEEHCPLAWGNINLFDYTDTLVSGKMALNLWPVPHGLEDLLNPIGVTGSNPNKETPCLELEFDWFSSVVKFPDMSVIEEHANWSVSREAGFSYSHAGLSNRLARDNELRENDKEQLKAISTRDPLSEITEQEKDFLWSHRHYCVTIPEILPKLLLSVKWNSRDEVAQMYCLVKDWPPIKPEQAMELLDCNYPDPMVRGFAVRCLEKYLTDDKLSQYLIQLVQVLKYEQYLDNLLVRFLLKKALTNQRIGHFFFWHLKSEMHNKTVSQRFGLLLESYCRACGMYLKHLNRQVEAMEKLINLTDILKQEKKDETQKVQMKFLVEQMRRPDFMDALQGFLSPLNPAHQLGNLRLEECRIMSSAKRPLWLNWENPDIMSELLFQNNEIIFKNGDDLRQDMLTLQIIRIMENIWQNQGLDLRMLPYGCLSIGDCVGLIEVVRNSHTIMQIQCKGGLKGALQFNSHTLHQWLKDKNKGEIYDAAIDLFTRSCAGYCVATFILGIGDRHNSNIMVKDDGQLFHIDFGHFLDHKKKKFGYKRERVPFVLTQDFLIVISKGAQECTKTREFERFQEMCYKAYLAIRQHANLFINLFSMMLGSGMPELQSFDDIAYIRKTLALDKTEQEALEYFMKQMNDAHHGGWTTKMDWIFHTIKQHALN

With `O=C(CSc1nc2nccnc2c(=O)n1CCc1ccccc1)Nc1nccs1` the inhibition was 34% (PIK3CA E542K with p85 alpha; 10 µM, E542K with PIK3R1).
`Cc1ccc(NC(=O)c2ccc(C)c(C(F)(F)F)c2)cc1C#Cc1nn(C2CCC(O)CC2)c2ncnc(N)c12` (centres unmarked) gave a remaining activity of 85% (PIK3CA E542K with p85 alpha; enzyme activity, inhibitor; 10 µM, p110a(E542K)/p85a)(h human, with: ATP 10 µM).
For `CS(=O)(=O)Nc1cccc(-c2csc(NC(=O)CSc3nc4nccnc4c(=O)n3CCc3ccccc3)n2)c1`, the inhibition was 3% (Phosphatidylinositol 4,5-bisphosphate 3-kinase catalytic subunit alpha isoform, with p55 gamma (PIK3CA, Homo sapiens, UniProt P42336); kinase activity, inhibitor; 10 µM, with: PIK3R3 complex).
`Cc1nc(NC(=O)N2CCCC2)sc1-c1csc(C(C)(C)C)n1` has an inhibition of 14% (Phosphatidylinositol 4,5-bisphosphate 3-kinase catalytic subunit alpha isoform (PIK3CA, Homo sapiens, UniProt P42336, K776A); enzyme activity; 3 µM).
The inhibition of `CN(C)C1CCN(CC#Cc2nn(C3CCCC3)c3nc(NCc4ccccc4)ncc23)C1` (centres unmarked) is reported as -3% (Phosphatidylinositol 4,5-bisphosphate 3-kinase catalytic subunit alpha isoform, with p85 alpha (PIK3CA, Homo sapiens, UniProt P42336); enzyme activity, inhibitor, Z'-LYTE; 100 nM).
For `O=C(NC1CCC1)c1ccc2nc(-c3cccc(NS(=O)(=O)NCCN4CCCCC4)c3)cn2c1`, the remaining activity was 100% (Phosphatidylinositol 4,5-bisphosphate 3-kinase catalytic subunit alpha isoform (PIK3CA, Homo sapiens, UniProt P42336, M1043I); enzyme activity; 10 µM).
The remaining binding of `C=CC(=O)N1CCC(COCC(=O)N2CCN(c3nc(-c4cnc(N)nc4C(F)F)nc(N4CCOC[C@@H]4C)n3)CC2)CC1` is reported as 4.5% (Phosphatidylinositol 4,5-bisphosphate 3-kinase catalytic subunit alpha isoform (PIK3CA, Homo sapiens, UniProt P42336, Q546K); KINOMEscan; 1 µM).
For `COc1cc(-c2cncc3c2CN(C)Cc2cc(N4CCNCC4)ccc2-3)cc(OC)c1OC`, the remaining activity was 102% (Phosphatidylinositol 4,5-bisphosphate 3-kinase catalytic subunit alpha isoform, with p65 alpha (PIK3CA, Homo sapiens, UniProt P42336); kinase activity; 1 µM, p110a/p65a)(h human, with: ATP 10 µM; baseline: DMSO).

Excerpt of the above:
The remaining binding of `C=CC(=O)N1CCC(COCC(=O)N2CCN(c3nc(-c4cnc(N)nc4C(F)F)nc(N4CCOC[C@@H]4C)n3)CC2)CC1` is reported as 4.5% (Phosphatidylinositol 4,5-bisphosphate 3-kinase catalytic subunit alpha isoform (PIK3CA, Homo sapiens, UniProt P42336, Q546K); KINOMEscan; 1 µM).
